Experimental data pooled from the literature.
Lines come from different studies, so protocols differ. ± marks the error that the study gave.
UniProt P51659, sequence (whole entry, looked up): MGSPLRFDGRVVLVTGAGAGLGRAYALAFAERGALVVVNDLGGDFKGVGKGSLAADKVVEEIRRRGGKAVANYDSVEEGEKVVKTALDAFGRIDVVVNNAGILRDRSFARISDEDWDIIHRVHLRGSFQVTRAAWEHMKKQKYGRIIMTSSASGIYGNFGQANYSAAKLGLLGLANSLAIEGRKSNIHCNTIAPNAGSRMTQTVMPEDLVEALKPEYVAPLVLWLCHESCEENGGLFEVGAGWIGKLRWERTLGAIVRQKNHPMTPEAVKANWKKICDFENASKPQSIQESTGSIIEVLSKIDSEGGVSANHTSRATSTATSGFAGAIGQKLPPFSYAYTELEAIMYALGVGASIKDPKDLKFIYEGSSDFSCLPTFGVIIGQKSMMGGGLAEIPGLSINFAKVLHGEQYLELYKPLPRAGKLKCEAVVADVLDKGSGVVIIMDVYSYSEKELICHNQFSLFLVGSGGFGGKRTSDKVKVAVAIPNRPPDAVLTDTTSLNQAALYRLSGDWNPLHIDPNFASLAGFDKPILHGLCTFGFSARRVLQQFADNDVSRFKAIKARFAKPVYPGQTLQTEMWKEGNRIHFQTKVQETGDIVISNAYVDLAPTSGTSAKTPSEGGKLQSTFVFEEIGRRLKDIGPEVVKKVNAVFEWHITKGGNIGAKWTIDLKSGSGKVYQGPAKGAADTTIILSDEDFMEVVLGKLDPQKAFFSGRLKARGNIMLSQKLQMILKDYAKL
UniProt P06276, sequence (whole entry, looked up): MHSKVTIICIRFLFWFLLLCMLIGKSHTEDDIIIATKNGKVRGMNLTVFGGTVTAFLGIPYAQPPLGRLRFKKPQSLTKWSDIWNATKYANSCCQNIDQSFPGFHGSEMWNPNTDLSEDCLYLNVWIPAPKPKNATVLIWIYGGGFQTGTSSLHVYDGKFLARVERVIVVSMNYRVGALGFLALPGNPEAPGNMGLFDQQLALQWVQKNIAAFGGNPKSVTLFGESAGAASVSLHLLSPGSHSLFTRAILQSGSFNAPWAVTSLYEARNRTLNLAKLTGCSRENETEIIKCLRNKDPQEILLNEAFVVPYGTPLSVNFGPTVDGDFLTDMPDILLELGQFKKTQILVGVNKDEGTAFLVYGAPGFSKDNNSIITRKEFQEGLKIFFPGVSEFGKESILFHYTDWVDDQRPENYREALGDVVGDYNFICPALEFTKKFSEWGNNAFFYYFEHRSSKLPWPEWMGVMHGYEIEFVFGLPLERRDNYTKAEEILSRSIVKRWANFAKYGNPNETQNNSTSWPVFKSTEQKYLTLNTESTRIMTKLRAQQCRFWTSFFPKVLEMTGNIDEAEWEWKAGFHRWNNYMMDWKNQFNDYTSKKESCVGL

| Compound | target or system | test | system | setting | scale | quantity | result |
| --- | --- | --- | --- | --- | --- | --- | --- |
| Clc1cc(-c2cc(Cl)c(Cl)c(Cl)c2)cc(Cl)c1Cl | – | – | fresh water | 20 °C | – | log K(PDMS-water) | 6.32 ± 0.08 |
| C[C@H]1N=C(c2ccccc2F)c2cc(Br)ccc2-n2cnc(C(=O)O)c21 | – | – | mouse liver S9 fraction | 10 µM, 2 h, glucuronidation | – | parent remaining | ~85% |
| COc1cc2c(cc1OC)CN(CCc1ccc(NC(=O)c3cccc4c(=O)c5cccc(OC)c5[nH]c34)cc1)CC2 | – | – | CD-1 mouse, male, plasma | intraperitoneal, 3 mg/kg | – | elimination rate constant | 2.7e-05 s⁻¹ |
| Cc1cccc(Cn2nc(C3CC3)c3c(NC(=O)c4cnc5cc(OCCN6CCN(C)CC6)ccn45)cccc32)n1 | – | measured: Fatigue | human pancreatic ductal adenocarcinoma | oral, dose not given, all-causality | – | adverse events incidence | 59.3% |
| C=CC(=O)Nc1cc(Nc2nccc(Nc3cc(Cl)c(F)cc3C(C)(C)O)n2)c(OC)cc1N1CC[C@@H](N(C)C)C1 | – | – | human | oral, dose not given | – | lipase increased TEAE | 12.7% |
| CCc1ccc(CC/C=C/c2ccc3c(c2)C(=O)CC3)cc1 | – | – | Sprague-Dawley rat, female | oral, 450 mg/kg/day, 14 days | – | Erythrocyte percentage | 11.1% |
| Clc1ccc(-c2ccc(Cl)c(Cl)c2)c(Cl)c1 | – | – | polyethylene-water partitioning | PCB compilation | baseline: maximum over minimum K | literature range factor | 1.5 |
| O=C(Nc1ccccc1)C1CCN(C(=O)Oc2cccnc2)CC1 | – | adverse event reporting | healthy women | oral, 100 mg, 9 days | – | subjects with chest discomfort | 7.7% |
| C[C@H]1CN(c2n[nH]c3nc(N[C@H]4CC[C@H](NS(=O)(=O)CCC(F)(F)F)CC4)ncc23)CCO1 | Peroxisomal multifunctional enzyme type 2 (HSD17B4, Homo sapiens, UniProt P51659) | biochemical | – | – | – | IC50 | ≥ 20 µM |
| CC[C@H](C)[C@H](N)C(=O)N[C@H]1CSSC[C@@H](C(=O)N[C@H](C(N)=O)[C@@H](C)O)NC(=O)[C@H](CCCN=C(N)N)NC(=O)[C@H](Cc2cnc[nH]2)NC(=O)[C@H](Cc2cnc[nH]2)NC(=O)CNC(=O)[C@H](Cc2c[nH]c3ccccc23)NC(=O)[C@H](CC(=O)O)NC(=O)[C@H](CCC(N)=O)NC(=O)[C@H](C(C)C)NC(=O)[C@H](C(C)C)NC1=O | – | isocratic RP-HPLC | C18 column | pH 7.4, 25 °C, elution method 2 | higher = more lipophilic | log retention factor | -0.44 |
| CCN(CCO)CCCC(C)Nc1ccnc2cc(Cl)ccc12 (stereo not shown) | – | – | newly diagnosed glioblastoma patients | oral, 400 mg/dose, grade 4, with: radiotherapy and temozolomide | – | neutrophil decrease patients | 14% |
| CN1CC[C@@H](c2c(O)cc(O)c3c(=O)cc(-c4ccc(C(F)(F)F)cc4Cl)oc23)[C@@H]1CO | – | measured: Neutropenia | relapsed AML | oral, 150 mg, grade 3-4, intermittent dosing | – | patients with adverse event | 25% |
| C[C@H]1C[C@@H](N2C(=N)N[C@](C)(c3cccc(NC(=O)c4cccc(C#N)c4)c3Cl)CC2=O)CCO1 | – | – | rat | 1000 mg/kg, every other day | – | reticulocytes count change | -41% |
| CO[C@H]1C[C@@H]2CC[C@@H](C)[C@@](O)(O2)C(=O)C(=O)N2CCCC[C@H]2C(=O)O[C@H]([C@H](C)C[C@@H]2CC[C@@H](OC(=O)NCCOCCOCCOCCOCCOCCOCCOCCOCCC(=O)N3CCc4cc(Cn5nc(-c6ccc7oc(N)nc7c6)c6c(N)ncnc65)ccc4C3)[C@H](OC)C2)C[C@@H](O)[C@H](C)/C=C(\C)[C@@H](O)[C@@H](OC)C(=O)[C@H](C)C[C@H](C)/C=C/C=C/C=C/1C | – | phase 1 dose escalation, measured: diarrhoea | advanced solid tumour patients | intravenous, 8 mg weekly, any grade | – | TRAE incidence | 25% |
| c1ccc2c(c1)ccc1cc3c(ccc4ccccc43)cc12 | – | – | fresh water | 12 (unit not given), 20 °C, S100 sampler, 100 µm | – | log K(PDMS-water) | 5.26 ± 0.21 |
| N[C@@H]1c2ccccc2OC12CCN(c1cnc3c(N4CCCc5ncccc54)n[nH]c3n1)CC2 | – | – | patients advanced metastatic solid tumours | oral, dose not given, dose escalation total | – | TEAE leading to death | 2.8% |
| CC(C)CN1CCc2ccc(Br)cc21 | Plasmodium falciparum | – | GB4 | – | – | IC50 | 1.26 µM |

| Compound | target or system | test | system | setting | scale | quantity | result |
| --- | --- | --- | --- | --- | --- | --- | --- |
| COc1cc2c(Oc3ccc4[nH]c(C)cc4c3F)ccnc2cc1OCC1(N)CC1 | – | – | paediatric recurrent refractory sarcoma | concentration not given, whole group | – | grade 1 or 2 Hypothyroidism | 58.8% |
| Cc1ncnc2c1ccn2[C@@H]1C[C@H](Oc2cc(C(F)F)c(F)c3c2CNCC3)[C@@H](O)[C@H]1O | – | – | patients | dose not given, grade ≥3 | baseline: patients | Nausea incidence | 0% |
| CC(C)C[C@@H]1NC(=O)CNC(=O)[C@H](CC(N)=O)NC(=O)[C@H](CCCNC(=N)N)NC(=O)[C@H]([C@@H](C)O)NC(=O)[C@@H]2CSSC[C@@H]3NC(=O)[C@H]([C@@H](C)O)NC(=O)CNC(=O)CNC(=O)[C@H](C(C)C)NC(=O)[C@@H]4CSSC[C@H](NC(=O)[C@H]([C@@H](C)O)NC(=O)[C@H](CSSC[C@H](NC(=O)[C@H](C(C)C)NC(=O)[C@@H]5CCCN5C1=O)C(=O)NCC(=O)N[C@@H](CCC(=O)O)C(=O)N[C@@H]([C@@H](C)O)C(=O)N4)NC(=O)CNC(=O)[C@@H]1CCCN1C(=O)[C@H]([C@@H](C)O)NC(=O)[C@H](CC(N)=O)NC3=O)C(=O)N[C@@H](CO)C(=O)N[C@@H](Cc1c[nH]c3ccccc13)C(=O)N1CCC[C@H]1C(=O)N[C@@H](CCCCN)C(=O)N2 | – | HPLC | ammonium bicarbonate 0.1 M | 180 µM, 7 days, pH 9.0, 37 °C, deamidation stability | – | remaining peptide | 62 ± 2.6% |
| C=C(C)[C@@H]1CCC(C)=C[C@H]1c1c(O)cc(CCCCC)cc1O | – | – | human | 750 mg, trial 17074, with: rifampicin 600 mg | – | subjects with Somnolence | 13% |
| COc1ccnc(C(=O)N[C@H]2COC(=O)[C@H](Cc3ccccc3)[C@@H](OC(=O)C(C)C)[C@H](C)OC2=O)c1OCOC(=O)C(C)C | – | – | rat | oral, acute | – | LD50 | > 2000 mg/kg |
| N=C(N)NC(=O)Cc1c(Cl)cccc1Cl | Plasmodium falciparum | – | D10 | – | – | IC50 | 5.01 µM |
| CC(=O)c1c(C)c2cnc(Nc3ccc(C4CCN(CCS(C)(=O)=O)CC4)cn3)nc2n(C2CCCC2)c1=O | – | – | human patients, plasma | oral, 100 mg twice daily, day 21 multiple doses, with: fulvestrant | – | AUC(0-t) | 1490 ng·h/mL |
| c1ccc(C2(c3ccccc3)CC2C2=NCCN2)cc1 (stereo not shown) | Cholinesterase (BCHE, Homo sapiens, UniProt P06276) | inhibitor | – | with Triton | – | IC50 | 13.4 ± 5.05 µM |
| O=C(O)CCCOc1ccc(F)cc1-c1cc(-c2ccccc2C(F)(F)F)n(-c2ccccc2)n1 | – | measured: Eosinophils | Crl:CD(SD) rats, female, blood | iv, 25 µg/kg, 14 days | – | leukocyte differential | 1 ± 0.3% |
| Clc1ccc(-c2ccccc2)cc1 | – | – | rat Sprague-Dawley female, serum | inhalation, 23 µg/rat, 2 h | – | serum triglycerides | 51 ± 21 mg/dL |
| CN(C(=O)n1cnc(-c2ccc[n+]([O-])c2)c1)C1CCCCC1 | – | – | Wistar rat, pons | oral, 10 mg/kg, 4 h, single dose | – | concentration | 122 ± 34.9 ng/g |
| O=C1Nc2cc3[nH]nc(-c4ccncc4)c3cc2CN1Cc1ccccc1 | – | CTCAE v4.03 | advanced solid tumour patients | intravenous, 1.8 mg/kg, schedules 1/2 | – | patients with constipation | 0% |
| CC(C)C[C@@H]1NC(=O)CNC(=O)[C@H](CC(N)=O)NC(=O)[C@H](CCCNC(=N)N)NC(=O)[C@H]([C@@H](C)O)NC(=O)[C@@H]2CSSC[C@@H]3NC(=O)[C@H]([C@@H](C)O)NC(=O)CNC(=O)CNC(=O)[C@H](C(C)C)NC(=O)[C@@H]4CSSC[C@H](NC(=O)[C@H]([C@@H](C)O)NC(=O)[C@H](CSSC[C@H](NC(=O)[C@H](C(C)C)NC(=O)[C@@H]5CCCN5C1=O)C(=O)NCC(=O)N[C@@H](CCC(=O)O)C(=O)N[C@@H]([C@@H](C)O)C(=O)N4)NC(=O)CNC(=O)[C@@H]1CCCN1C(=O)[C@H]([C@@H](C)O)NC(=O)[C@H](CCCCN)NC3=O)C(=O)N[C@@H](CO)C(=O)N[C@@H](Cc1c[nH]c3ccccc13)C(=O)N1CCC[C@H]1C(=O)N[C@@H](C(C)C)C(=O)N2 | – | HPLC | ammonium bicarbonate 0.1 M | 180 µM, 7 days, pH 9.0, 37 °C, deamidation stability | – | remaining peptide | 76.8 ± 4.1% |
| NC(=O)[C@H]1CCN(c2ncnc(N)c2F)C[C@@H]1N1CCC[C@@H](Nc2cc(Cl)cc(C(F)(F)F)c2)C1=O | – | – | B-cell malignancy patients | oral, 82 mg twice daily, dose | – | grade ≥3 bilirubin increase | 0% |
| CC1(C)[C@@H](O[C@H]2O[C@H](C(=O)O)[C@@H](O)[C@H](O)[C@H]2O[C@@H]2O[C@H](C(=O)O)[C@@H](O)[C@H](O)[C@H]2O)CC[C@]2(C)[C@H]3C(=O)C=C4[C@@H]5C[C@@](C)(C(=O)O)CC[C@]5(C)CC[C@@]4(C)[C@]3(C)CC[C@@H]12 | – | – | Sprague Dawley rat, plasma | oral, 3.34 g lyophilized powder/kg, low dose | – | Vz/F | 0.43 ± 0.2 L/kg |
| C=CCNc1c(O)cc2c(O)c1C[C@@H](C)C[C@H](OC)[C@H](O)[C@@H](C)/C=C(\C)[C@H](OC(N)=O)[C@@H](OC)/C=C\C=C(/C)C(=O)N2 | – | – | unresectable or metastatic STS, GIST, other | intravenous, 400 mg/m^2 | – | patients with headache TEAE | 63% |
| CC(C)[C@@H]1NC(=O)CNC(=O)[C@H](CC(N)=O)NC(=O)[C@H](CCCNC(=N)N)NC(=O)[C@H](Cc2ccc(O)cc2)NC(=O)[C@H](C(C)C)NC(=O)[C@@H](NC(=O)[C@@H](NC(=O)[C@H](CC(N)=O)NC(=O)[C@H](Cc2c[nH]c3ccccc23)NC(=O)[C@H](C)NC(=O)[C@H](Cc2ccccc2)NC(=O)CN)C(C)C)CSSC[C@@H](C(=O)N[C@@H](Cc2c[nH]cn2)C(=O)N[C@@H](CCCNC(=N)N)C(=O)N[C@@H](CCCNC(=N)N)C(=O)N[C@@H](C)C(=O)N[C@@H](CC(N)=O)C(N)=O)NC(=O)[C@H](C(C)C)NC(=O)[C@H](CCCNC(=N)N)NC1=O | – | circular dichroism, measured: β-Turn | PBS | 80 µM, pH 7.4, with: LTA 1 µM | – | secondary structure content | 21.2% |

For quick reference, copied from above:
| Compound | target or system | test | system | setting | scale | quantity | result |
| --- | --- | --- | --- | --- | --- | --- | --- |
| O=C1Nc2cc3[nH]nc(-c4ccncc4)c3cc2CN1Cc1ccccc1 | – | CTCAE v4.03 | advanced solid tumour patients | intravenous, 1.8 mg/kg, schedules 1/2 | – | patients with constipation | 0% |
| c1ccc2c(c1)ccc1cc3c(ccc4ccccc43)cc12 | – | – | fresh water | 12 (unit not given), 20 °C, S100 sampler, 100 µm | – | log K(PDMS-water) | 5.26 ± 0.21 |
| Clc1cc(-c2cc(Cl)c(Cl)c(Cl)c2)cc(Cl)c1Cl | – | – | fresh water | 20 °C | – | log K(PDMS-water) | 6.32 ± 0.08 |
| C[C@H]1N=C(c2ccccc2F)c2cc(Br)ccc2-n2cnc(C(=O)O)c21 | – | – | mouse liver S9 fraction | 10 µM, 2 h, glucuronidation | – | parent remaining | ~85% |
| Cc1ncnc2c1ccn2[C@@H]1C[C@H](Oc2cc(C(F)F)c(F)c3c2CNCC3)[C@@H](O)[C@H]1O | – | – | patients | dose not given, grade ≥3 | baseline: patients | Nausea incidence | 0% |
